Published values pooled from the literature.
Every numbered part comes from another study and shows a few of its results, in no order.

Block 1
Target: Interferon regulatory factor 7, full length, phosphomimetic (IRF7, Homo sapiens, UniProt Q92985, residues 1-503, S471D/S472D/S475D/S476D/S477D/S483D/S484D/S487D)
UniProt Q92985, sequence (whole entry, unmodified, looked up): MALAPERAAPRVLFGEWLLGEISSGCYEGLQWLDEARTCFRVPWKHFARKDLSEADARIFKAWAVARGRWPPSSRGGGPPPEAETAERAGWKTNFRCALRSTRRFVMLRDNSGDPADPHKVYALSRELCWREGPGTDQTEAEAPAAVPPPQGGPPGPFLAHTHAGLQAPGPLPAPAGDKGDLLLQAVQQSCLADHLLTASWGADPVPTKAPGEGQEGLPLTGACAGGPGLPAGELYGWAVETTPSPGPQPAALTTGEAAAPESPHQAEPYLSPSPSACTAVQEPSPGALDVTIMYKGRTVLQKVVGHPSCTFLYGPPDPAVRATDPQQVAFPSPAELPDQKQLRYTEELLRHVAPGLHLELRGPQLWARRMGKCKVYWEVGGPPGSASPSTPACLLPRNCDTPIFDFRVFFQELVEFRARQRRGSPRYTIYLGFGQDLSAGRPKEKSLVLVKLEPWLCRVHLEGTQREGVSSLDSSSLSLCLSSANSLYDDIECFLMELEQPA
Method: protein-binding microarray
Form: double-stranded DNA, one strand shown
Sample: in vitro
Tested at: 2200 nM top
Notes: 60-bp whole probe
Together with: salmon DNA 0.4 mg/ml
Baseline: random background probes
Reading: higher = stronger binding
Shared flanks, not repeated: GCCTAGCAC … GTCTTGATTCGCTTGACGCTGCTG
Oligonucleotide	fitted relative affinity [z-score]
TCATGTATGAGCCTCTGACTGTGCTAG	0.83
ACCCTCATTCTACTATCGATGTGCTAG	2.33
TCAGTGGTCTGTTTCTGACTGTGCTAG	1.28
GACGATTCCAGTTTCTAGACGTGCTAG	1.98
TGACGGCTCACTCCGTTGGAGTGCTAG	-0.597
ATCTCACTCTAATCTCACTCTGTGCTA	1.08
GACGGACTGGACTTTCTGGACGTGCTA	0.25
TTAAGAATGTTTTTCATTGTGTGCTAG	0.0289
TCATCTTTACTGCTCCAACTGTGCTAG	1.66
TCACATGTGCCTTTATAACTGTGCTAG	0.967
TTAGGTATCGGTAGCGGTTAGTGCTAG	0.00366
GACGGTCTCCCACTGCTGACGTGCTAG	0.179
TCAATTTTCATTTTGTGACTGTGCTAG	5.44
GACGGTCTGGGACTGGGGACGTGCTAG	-0.747
TTAGGTAACCTTTTCCTTTAGTGCTAG	0.82
TTAGCTATCCTTTTCCTTTAGTGCTAG	1.88
GACGTTTTCGGGTTTCGGGACGTGCTA	9.34
GTAGGTCTCGGTTTCGGTTAGTGCTAG	6.96
GACGATATCAGTATGGAGACGTGCTAG	0.0487
CTGGGCAGGATGAGTTCCAGGTGCTAG	-1.35
GGGCACATCTTAACATATGAGTGCTAG	-0.107
GACGATATCGGGACTGGCGACGTGCTA	-0.317
ACTCATTTTCGTTTTGTGTCGTGCTAG	14.3
TTAGGTATCGGTTATCGGTTAGTGCTA	1.25
ACCATTGTGGTTTTCATTATGTGCTAG	1.38

Block 2
Target: Centromere-binding protein 1, full length, His-tagged (CBF1, Saccharomyces cerevisiae, UniProt P17106, residues 1-351)
UniProt P17106, sequence (whole entry, looked up): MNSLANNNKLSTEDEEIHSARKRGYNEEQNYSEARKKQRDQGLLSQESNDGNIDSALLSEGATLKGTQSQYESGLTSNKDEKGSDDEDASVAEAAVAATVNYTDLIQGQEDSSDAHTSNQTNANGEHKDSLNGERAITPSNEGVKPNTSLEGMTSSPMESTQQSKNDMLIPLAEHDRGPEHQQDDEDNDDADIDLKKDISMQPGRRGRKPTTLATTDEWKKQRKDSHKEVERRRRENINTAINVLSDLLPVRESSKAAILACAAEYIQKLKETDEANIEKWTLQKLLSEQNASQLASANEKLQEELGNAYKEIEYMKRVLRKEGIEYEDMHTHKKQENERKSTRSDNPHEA
Method: competition protein-binding microarray
Form: double-stranded DNA, one strand shown
Sample: in vitro
Tested at: 2 µM
Notes: whole 60-bp probe, lowest competitor level
Together with: Pho4 competitor, 0.05 µM
Reading: higher = stronger binding
Oligonucleotide	fluorescence intensity [a.u.]
TGCGCAACAACTTGCCCTGTGGGTGTATGTCTAGAAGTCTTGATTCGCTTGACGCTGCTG	61.2
ATTCATTCAAGCTAGCAAACTTAGATCTCAAAAAATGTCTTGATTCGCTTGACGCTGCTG	68.4
AAAATATATCGCTAGCATGCGTGAGATATGGATAAGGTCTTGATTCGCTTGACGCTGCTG	89.8
CTTTCCGGTTCGGGCCAGGTGACGGAAATCGTTCTGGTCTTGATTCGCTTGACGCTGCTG	84.2
CGGGGTTAAGTTTGAAACGTGGGTGGCTTGCAGCAGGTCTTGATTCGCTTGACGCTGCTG	91.4
AAATTACTAAGTTGGCAGGTGGGTGACGCCGTATGAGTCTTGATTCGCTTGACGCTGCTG	61.7
CGTATTTGTCACCATCACGTGCTTTAAAATCTTCAGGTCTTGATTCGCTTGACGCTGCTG	7830
TAGGATGACCGTCACCATGTGATCCAAATGCACTCAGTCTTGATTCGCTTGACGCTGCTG	1080
CATACCCAACCTTGATCAGTGGGTGAAGATATTTGTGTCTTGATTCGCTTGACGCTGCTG	69.8
TGATATTCTGGCCGTCACGTCTTCTTTGTTTTCTTTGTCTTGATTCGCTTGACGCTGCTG	124
AAAGCGGTAATTTGGAATGTGGGTGCAGATATCTATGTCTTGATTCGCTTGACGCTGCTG	85.1
ATTGTTTCCAGGCGTCATGTGTTTCCTTGATGATATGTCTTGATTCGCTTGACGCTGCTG	274
CTTTCCCGATCTTGAACGGTGGGTGTAGCACATTTGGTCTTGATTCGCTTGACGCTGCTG	70.3
GTCTTGTCTCATTTTCACGTGAGCTTCCCCACTTCAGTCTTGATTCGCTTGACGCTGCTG	839
TAGCCCCAAAATCCACACGTGACGGAAATGATTTAGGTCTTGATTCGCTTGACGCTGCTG	4170
CTTCTGTAAATTTGACGCGTGGGTGGACGCGCCCCGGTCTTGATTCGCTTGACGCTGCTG	92.3
AGAGAAATATCGGAACGCATGCAGACCAAATTTATAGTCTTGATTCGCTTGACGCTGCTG	91
CTAACGAAGGTTTTTCACGTGTAGTACAAGCCAAGTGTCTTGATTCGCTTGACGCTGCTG	648
GACCAGCTTGTGAGGCATGTGTCACCCTGGAATTTCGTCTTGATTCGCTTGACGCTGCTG	79.8
CGGGGTTAAGTTTTTCACGTGTTCTGCTTGCAGCAGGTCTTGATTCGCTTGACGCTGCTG	816
CTTTCCCGATCTTGAAGAGTGGGTGTAGCACATTTGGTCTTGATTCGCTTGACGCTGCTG	71.9
CGTCCTAGTGATTGCCTAGTGGGTGCCATGAGGAAGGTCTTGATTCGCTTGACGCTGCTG	86.9
ACCTTCTAATTTTGGAGCGTGACGAATGGCCTCAATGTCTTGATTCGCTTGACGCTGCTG	186
TGCAGAAGGGGACGATAATAAGACCAAATATTCTTGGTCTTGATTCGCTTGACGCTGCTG	65.2
GAGGTTCGGTTTTGTCATGTGTGCTTTTATACGGCAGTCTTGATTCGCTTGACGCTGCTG	250

Block 3
Target: Fragile X messenger ribonucleoprotein 1, C-terminal low-complexity region (Fmr1, Mus musculus, UniProt P35922)
Method: RNA Bind-n-Seq
Form: RNA
Sample: in vitro
Tested at: 200 nM
Notes: whole 134-nt RNA, ends assumed
Together with: 150 mM LiCl
Baseline: input library
Reading: higher = stronger binding
Each molecule: 7-deaza-guanosine replaces G
Oligonucleotide	log2 enrichment
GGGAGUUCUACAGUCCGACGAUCGUCCUGUGCUACACAUCGUAUGUACCGAAUCGGGAAAAAGGAAAAAGGGGAAAAAGGGAAAGUAUUAUGUUACGCCGUUCGGAUCUGCACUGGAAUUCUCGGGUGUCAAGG	0.0869
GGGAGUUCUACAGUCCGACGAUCUUUGCUGAUUUCUGGCUGGCGGAUCAGCUGAACAGCCUGUCAGUGAUACUGAUGGACCUGGAAUAUAUGAUCUGCUUCUACAGUUUGGAGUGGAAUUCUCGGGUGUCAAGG	-3.67
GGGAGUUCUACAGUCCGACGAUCUCCUCAAGUCCUGUGCUACACAUCGUAUGUACCGAAUCGGAGGUGGAAAGGAAAGUAUUAUGUUACGCCGUUCGGAUCUGCACUUCCAGCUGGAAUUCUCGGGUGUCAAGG	-1.02
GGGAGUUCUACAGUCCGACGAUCCCUGUGCUACACAUCGUAUGUACCGAAUCGGGCCCCCCCGGGCCCCCCCGGGCCCCCCCGGAAAGUAUUAUGUUACGCCGUUCGGAUCUGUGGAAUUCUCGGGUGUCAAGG	0.139
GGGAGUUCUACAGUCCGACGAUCUGGCACUGGUGGCAUGCGGGGAGGAAGAGGUGGCCUCAUGGAUCGUGGUGGUCCCGGUGGAAUGUUCAGAGGUGGCCGUGGUGGAGACAGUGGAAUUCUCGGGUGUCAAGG	-0.347
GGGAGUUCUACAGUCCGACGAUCCCUGUGCUACACAUCGUAUGUACCGAAUCGGGGUUUUUUGGGGUUUUUUGGGUUUUUUGGGAAAGUAUUAUGUUACGCCGUUCGGAUCUGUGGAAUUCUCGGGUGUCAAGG	-0.228
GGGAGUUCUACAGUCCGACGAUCGUCCUGUGCUACACAUCGUAUGUACCGAAUCGGGAAAAAGGGAAAGGGAAAAAAAGGGAAAGUAUUAUGUUACGCCGUUCGGAUCUGCACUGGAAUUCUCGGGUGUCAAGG	0.41
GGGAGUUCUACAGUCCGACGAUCAGUCCUGUGCUACACAUCGUAUGUACCGAAUCGGGUUUUUGGGUUUUUUUGGGAGGGAAAGUAUUAUGUUACGCCGUUCGGAUCUGCACUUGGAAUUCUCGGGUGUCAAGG	-0.581
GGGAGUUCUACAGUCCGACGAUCAGUCCUGUGCUACACAUCGUAUGUACCGAAUCGGUUUUGGGUUUUGGGGUUUUGGGGAAAGUAUUAUGUUACGCCGUUCGGAUCUGCACUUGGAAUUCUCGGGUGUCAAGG	-1.25
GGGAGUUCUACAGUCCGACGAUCUGGGAGGUGGAUUUUGUUUAUUUUUUUAGCUCAUUUCCAGGGGUGGGAAUUUUUUUUUAAUAUGUGUCAGGAAUAAAGUUGUUUUUGAAAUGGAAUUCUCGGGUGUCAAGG	0.395
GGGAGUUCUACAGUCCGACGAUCGUCCUGUGCUACACAUCGUAUGUACCGAAUCGGGGUUUUUGGGGUUUGGGGAAAGGGGAAAGUAUUAUGUUACGCCGUUCGGAUCUGCACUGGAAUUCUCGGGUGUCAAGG	-1.03

Block 4
Target: RNA binding protein fox-1 homolog 2, RRM domain, GST-SBP tag (RBFOX2, Homo sapiens, UniProt O43251-10, residues 100-194)
Method: RNA Bind-n-Seq
Form: RNA
Sample: in vitro
Tested at: 365 nM
Notes: natural RNA segment, single round, ends assumed
Baseline: no-protein control
Reading: higher = stronger binding
Residues (chain): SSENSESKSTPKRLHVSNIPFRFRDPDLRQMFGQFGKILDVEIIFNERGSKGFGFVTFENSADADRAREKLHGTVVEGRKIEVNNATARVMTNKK
Oligonucleotide	RBNS enrichment (R)
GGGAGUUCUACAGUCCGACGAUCCACCCCAAAAGGAGAGAAAAGGAAGAAAACAUUUAUAAAAAGCGACAGCUACCCCCAUAUUCAAAAAUAGUUCUUUUCCCUGUAGGGAAACAGGUAGCUCUCCAUAAGGAUGGAAUUCUCGGGUGCCAA	0.523
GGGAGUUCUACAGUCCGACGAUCAAGCCUGACCCCUUGCUUCCUCCCCGCCCCCCAGUGCGUUCUGUGAUCGCCAAGUUCAAAGCUGUGCACAUGUGGACACUCAAUAAAUGUUUAUUGGUGAUGAGAAGCCUUGGAAUUCUCGGGUGCCAA	0.225
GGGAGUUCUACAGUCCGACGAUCUACCACGUUAGGAGGGUGAGCAGCCCUCUGCUAUGUGCCCAGGACCCUGCCUGGACAUUGCAUUUCCCCAUUUAUGGUGCUCCGUAUUCUGGCAUUAUGCAGCAGCCUCAUGGAAUUCUCGGGUGCCAA	0.405
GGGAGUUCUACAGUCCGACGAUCAUAUCCACAAGAAGUGCCUCUUAGGUCUGUGACAGAGAGUGUGUCUCCAUUCCUCAGUUCCCAGAAAGGGGAGAGGUUUGGCCUAAAAAGCAUGUAGAUGGGGGAGAAAUUGGAAUUCUCGGGUGCCAA	3.94
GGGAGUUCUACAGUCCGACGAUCUGAAUAGAUAUCUGCGGGGAACCUGGGGCAUUUUGGGGAACCCUGGGGUCUUUUACAGGUCAUGUUGGUUGCUGCUGCUUCUGUCAGGAAGUACCCUAGCUCCACGUACUUGGAAUUCUCGGGUGCCAA	0.633
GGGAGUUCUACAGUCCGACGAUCCGUUUCUUCACUUUUGCAAGGUUCCACAGAGUAAGACAUUGGGUCUAUUCCAGCUCAUUCAUUUUAUAUUGAAAAAAAUAAUUUUAAAAAUGGUGGCUUCAGCUCCAGCCUGGAAUUCUCGGGUGCCAA	0.788
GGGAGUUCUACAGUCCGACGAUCUCUGCUCAUUCCUUGGUUUGUCUUGGGUCCCACUGGGCAGGUGUCUAGCACUGAGAGGGAGAGUGUAGACAAGGGAGCCACGGAGGUACUGGAGGCAGCAAUUCCUCAUCUGGAAUUCUCGGGUGCCAA	0.73
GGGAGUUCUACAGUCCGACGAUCAAUAGAGACGCUGCUUCUCCCUCGCCUGGUGCCGCCCCCGCCGGGCAGGGGCCAUCCACCCGCCCCAGGACCAGCCCUCAGGGAGGGGAAACGGCCGAGAGCCCCCCCCCUGGAAUUCUCGGGUGCCAA	0.424
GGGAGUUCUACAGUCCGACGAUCCAAGGGUAUCAGCUUUUCCUUAGAUUUGUUCCUUGCUUUAUUUUUUAAUCACUAGCCAAAUUAAAUAAAAGCAUUUAUGAGAACUCUAAACCUUUCUGUAUUUGAGAGAGUGGAAUUCUCGGGUGCCAA	0.908
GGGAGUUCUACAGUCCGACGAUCGCUGAUAAAAGCCAGUGGCAGCUGUCGUGGCUGUGCUUUGUACUGCUCUCUACCAUGAAAGUGUAAAUACUGUAAUGUCUAAUCUAUUUAUCACAACUGACUACUGGACCUGGAAUUCUCGGGUGCCAA	0.704
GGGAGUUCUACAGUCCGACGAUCAGGGGAUCCUGAAGCUGAUAUAAAUAAGUCUAGCUCUAUAAUCCCCAAGUUCUAAAAGUUAUGGUUAGAUGCUAUUCUGUGGGUUGCUUUGAUAAUUCUUACUAACACAGUGGAAUUCUCGGGUGCCAA	0.869
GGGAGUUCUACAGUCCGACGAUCAAUUCUUGACAGUCUGUGUCCCAUCAGUCACUGCAUUUUUCUUUUUCCAAAUACAUCCUGUUGGAUACUGAAUAGAUCAUAGAUAUUGUAGACUGAGAUCUGGGACUGUGUGGAAUUCUCGGGUGCCAA	0.582

A few entries again (block 1):
Oligonucleotide	fitted relative affinity [z-score]
TGACGGCTCACTCCGTTGGAGTGCTAG	-0.597
TCATCTTTACTGCTCCAACTGTGCTAG	1.66
GACGATTCCAGTTTCTAGACGTGCTAG	1.98
TTAGGTAACCTTTTCCTTTAGTGCTAG	0.82
GACGGACTGGACTTTCTGGACGTGCTA	0.25
ACCATTGTGGTTTTCATTATGTGCTAG	1.38
CTGGGCAGGATGAGTTCCAGGTGCTAG	-1.35
GACGGTCTGGGACTGGGGACGTGCTAG	-0.747
GGGCACATCTTAACATATGAGTGCTAG	-0.107
ACTCATTTTCGTTTTGTGTCGTGCTAG	14.3
TCAGTGGTCTGTTTCTGACTGTGCTAG	1.28
